Earlier results as cited in several papers.
Lines come from different studies, so protocols differ. ± marks the error that the study gave. Converted amounts (≈) assume the structure as drawn.
UniProt Q9HBH9, sequence (whole entry, looked up): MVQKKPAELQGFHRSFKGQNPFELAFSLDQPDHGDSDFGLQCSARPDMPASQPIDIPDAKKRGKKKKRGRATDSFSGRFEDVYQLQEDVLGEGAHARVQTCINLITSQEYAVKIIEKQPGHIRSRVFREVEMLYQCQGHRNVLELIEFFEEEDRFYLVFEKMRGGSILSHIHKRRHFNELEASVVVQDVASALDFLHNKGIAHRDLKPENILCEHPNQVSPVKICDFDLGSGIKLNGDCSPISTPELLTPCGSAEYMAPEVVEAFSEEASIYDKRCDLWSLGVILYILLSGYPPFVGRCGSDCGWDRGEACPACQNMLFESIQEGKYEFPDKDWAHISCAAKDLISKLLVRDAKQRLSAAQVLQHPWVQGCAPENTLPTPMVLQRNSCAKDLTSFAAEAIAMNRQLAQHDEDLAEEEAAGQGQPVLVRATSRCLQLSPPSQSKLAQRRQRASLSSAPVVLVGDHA

Nc1cc(C(F)(F)F)c(-c2nc(N3CCOCC3)nc(N3CCOCC3)n2)cn1 — remaining activity (MKNK2 (Homo sapiens, UniProt Q9HBH9); enzyme activity; 10 µM; relative to: untreated): 91%
Cc1c(C#N)cccc1[C@@H](C)Nc1nnc(C)c2cnc(N3CCOCC3)cc12 — IC50 (HCC1438; In-Cell Western, item: pERK): 46.8 ± 15.4 nM
O=C(CBr)NCCc1c[nH]c2ccccc12 — IC50 (rat pinealocytes): 400 nM
CO[C@H]1C[C@@H]2CC[C@@H](C)[C@@](O)(O2)C(=O)C(=O)N2CCCC[C@H]2C(=O)O[C@H]([C@H](C)C[C@@H]2CC[C@@H](O)[C@H](OC)C2)CC(=O)[C@H](C)/C=C(\C)[C@@H](O)[C@@H](OC)C(=O)[C@H](C)C[C@H](C)/C=C/C=C/C=C/1C — IC50 (A 172): 40 nM
O=C(/C=C/c1cccc(S(=O)(=O)Nc2ccccc2)c1)NO — IC50 (HEK293; cell growth): 1420 ± 50 nM
CN(C)c1ccc(C(=O)N(CC(=O)NCc2ccccc2)Cc2ccc(C(=O)Nc3ccccc3N)cc2)cc1 — IC50 (A2780; cellular HDAC activity, inhibitor; together with: Boc-Lys(ε-Ac)-AMC substrate): 1220 ± 80 nM
Cc1nc(NC(=O)N2CCC[C@H]2C(N)=O)sc1-c1ccnc(C(C)(C)C(F)(F)F)c1 — IC50 (T98G): 45500 nM
CC1(C)S[C@@H]2[C@H](NC(=O)[C@H](N)c3ccccc3)C(=O)N2[C@H]1C(=O)O — MIC (Escherichia coli; clinical isolate RKI-No_593/16): > 16 mg/L
COc1cccc2c1C(=O)c1c(O)c3c(c(O)c1C2=O)C[C@@](O)(C(=O)CO)C[C@@H]3O[C@H]1C[C@H](N)[C@H](O)[C@H](C)O1 — IC50 (human fibroblasts; cell viability): 1800 nM
CC(F)(F)c1cc(F)ccc1-c1sc2cc(O)ccc2c1Oc1ccc(/C=C/C(=O)O)cc1 — IC50 (MCF7; cell proliferation; together with: insulin): 6 nM
C/C=C1\NC(=O)[C@H]2CSSCC/C=C/[C@H](CC(=O)N[C@H](C(C)C)C(=O)N2)OC(=O)[C@H](C(C)C)NC1=O — IC50 (HEK293; cell growth): < 5 nM
COc1cccc2c1C(=O)c1c(O)c3c(c(O)c1C2=O)C[C@@](O)(C(=O)CO)C[C@@H]3O[C@H]1C[C@H](N)[C@H](O)[C@H](C)O1 — IC50 (HeLa): 16700 nM
N=C(N)c1ccc(Nc2ccc(-c3cc4ccc(C(=N)N)cc4[nH]3)cc2)cc1 — IC50 (HeLa; cell proliferation): 2270 nM
COc1cc2c(Oc3ccc(NC(=O)C4(C(=O)Nc5ccc(F)cc5)CC4)cc3F)ccnc2cc1OCCCN1CCOCC1 — IC50 (T98G): 2420 nM
Nc1nc(Cl)nc2c1ncn2[C@H]1C[C@H](O)[C@@H](CO)O1 — IC50 (MM1.S): ~180 nM
CC(=O)Nc1cccc(-n2c(=O)n(C3CC3)c(=O)c3c(Nc4ccc(I)cc4F)n(C)c(=O)c(C)c32)c1 — IC50 (T98G): 10300 nM
CNC(C)C1CCC(N)C(OC2C(N)CC(N)C(OC3OCC(C)(O)C(NC)C3O)C2O)O1 (stereo not drawn) — MIC (Escherichia coli; clinical isolate RKI-No_515/16): 2 mg/L (≈ 4.19 µM)
COc1cc2c(Oc3ccc4[nH]c(C)cc4c3F)ncnc2cc1OCCCN1CCCC1 — IC50 (T98G): 14200 nM
COc1cc2c(cc1OC)C(c1c[nH]c3ncccc13)NCC2 (stereo not drawn) — IC50 (MRC-5 fibroblasts; cytotoxicity): > 100000 nM
C=CC(=O)Nc1cc(Nc2nccc(-c3cn(C)c4ccccc34)n2)c(OC)cc1N(C)CCN(C)C — IC50 (A 172): 4140 nM
CCc1c2c(nc3ccc(OC(=O)N4CCC(N5CCCCC5)CC4)cc13)-c1cc3c(c(=O)n1C2)COC(=O)[C@]3(O)CC — IC50 (LoVo): 15800 nM
